Published values pooled from the literature.
Parts stem from different laboratories: compare values within a part only. Changes are numbered by the printed parent chain.

Set 1
Target: Histone acetyltransferase KAT6A, both winged helices, GST fusion (KAT6A, Homo sapiens, UniProt Q92794, residues 1-181)
Method: protein binding microarray
Molecule type: double-stranded DNA, one strand shown
Sample: in vitro
Concentration: not given
Notes: 8-mer, flanks averaged, mean of 2 arrays, mostly near background
Reference: not given
Reading: higher = stronger binding
Endpoint: E-score
Residues (chain): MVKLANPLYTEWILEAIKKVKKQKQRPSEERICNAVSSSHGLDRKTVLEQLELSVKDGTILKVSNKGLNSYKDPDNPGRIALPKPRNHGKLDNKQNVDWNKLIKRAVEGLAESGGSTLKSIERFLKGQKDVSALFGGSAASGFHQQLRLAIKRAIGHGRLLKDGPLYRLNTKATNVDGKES
ACGGAGCG: 0.305
ATTACGAC: -0.0135
CAAGACGG: 0.0785
AATGAATA: -0.0681
ACCGTGTA: 0.0884
ACAGGCGT: -0.0431
AAATCAAT: -0.025
CAAAGAAC: -0.0204
CAGGCTAG: -0.186
AGAGTCGC: 0.00494
AGTCAGCG: 0.0335
GGGTCTAA: 0.02
AGTCCTCC: -0.0501
GGCGAGTA: 0.128
ACGGGCAA: 0.29
CCAAGTCA: -0.186
GAACTTCA: -0.146
AGACGATG: 0.0207
CCTATGAG: -0.217
GCTAGACC: 0.0208
CAGTATGA: -0.173

Set 2
Target: ABI1, truncated, D143A, DHFR fusion (Arabidopsis thaliana)
Method: DHFR PCA, deep sequencing
Sample: yeast
Notes: methotrexate growth selection, single substitutions
Added: (+)-ABA 4.8 µM
Reference: wild-type fitted maximum
Reading: higher = stronger binding
Endpoint: relative binding score
Parent: PYL1, truncated, DHFR fusion (Arabidopsis thaliana); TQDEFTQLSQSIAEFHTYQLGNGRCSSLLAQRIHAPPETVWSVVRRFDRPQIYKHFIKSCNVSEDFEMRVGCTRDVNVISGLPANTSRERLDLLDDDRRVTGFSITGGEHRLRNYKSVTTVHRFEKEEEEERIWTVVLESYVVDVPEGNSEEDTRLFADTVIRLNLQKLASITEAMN; partner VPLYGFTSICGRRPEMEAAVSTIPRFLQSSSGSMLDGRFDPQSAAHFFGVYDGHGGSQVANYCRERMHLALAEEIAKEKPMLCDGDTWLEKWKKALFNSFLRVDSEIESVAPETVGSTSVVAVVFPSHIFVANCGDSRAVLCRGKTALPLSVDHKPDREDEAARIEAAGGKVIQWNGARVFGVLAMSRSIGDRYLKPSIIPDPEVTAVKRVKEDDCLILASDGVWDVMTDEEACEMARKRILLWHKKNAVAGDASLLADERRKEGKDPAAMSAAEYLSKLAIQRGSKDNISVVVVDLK
N22C: 60.1%
R98V: 25.9%
R32V: 76%
E139G: -1.88%
A158R: -13.1%
T106L: 80.4%
E109R: 27.1%
G21K: 72.1%
L94D: -9.3%
V142E: 73.6%
Y141W: -10.1%
V161H: 0.815%
F66G: 69.9%
N114G: 56%
S171Q: 85.2%

Set 3
Target: Prothrombin, mature alpha-thrombin (F2, Homo sapiens, UniProt P00734)
Method: aptamer microarray, sandwich
Molecule type: DNA with 2'F-ANA
Sample: in vitro
Concentration: 200 nM
Notes: whole 15-mer aptamer, many near background
Added: Cy3 exosite-II aptamer, 400 nM
Reading: higher = stronger binding
Endpoint: mean fluorescence intensity
Oligonucleotide: GGTTGGTGTGGTTGG
2'F-ANA at 1 3 5 7 10 13 15: 45.7 a.u.
2'F-ANA at 3 6 11 12: 1170 a.u.
2'F-ANA at 2 3 6 7 8 9 13: 578 a.u.
2'F-ANA at 5 6 9 11: 61.1 a.u.
2'F-ANA at 1 3 4 5 10: 52.3 a.u.
2'F-ANA at 2 5 6 7 8 9 11 12: 131 a.u.
2'F-ANA at 6 7 8 10 11 14: 103 a.u.
2'F-ANA at 2 5 6 7 8 12 13 15: 112 a.u.
2'F-ANA at 1 2 8 9 11 13 15: 134 a.u.
2'F-ANA at 2 3 4 5 7 8 9 10 12 13 15: 64.6 a.u.
2'F-ANA at 3 4 5 6 10 12 13 14 15: 53.3 a.u.
2'F-ANA at 1 2 4 7 10 11 14: 48.3 a.u.
2'F-ANA at 1 2 4 5 8 11 12 13 14 15: 57.2 a.u.
2'F-ANA at 1 4 6 8 12 15: 269 a.u.
2'F-ANA at 2 3 4 7 10 14: 208 a.u.
2'F-ANA at 1 3 4 5 7 9 10 11 12 14 15: 74 a.u.
2'F-ANA at 2 3 5 7 9 10 11 14: 68 a.u.
2'F-ANA at 1 3 4 5 6 7 8 10 12 13 15: 54.6 a.u.
2'F-ANA at 3 10 12 13 15: 606 a.u.
2'F-ANA at 1 3 4 7 9 11 13 15: 128 a.u.
2'F-ANA at 2 4 5 7 8 9: 85.9 a.u.
2'F-ANA at 1 2 3 7 8 13: 246 a.u.
2'F-ANA at 2 3 7 8 9 12 13 14: 472 a.u.
2'F-ANA at 1 3 5 6 7 9 13 14 15: 45.9 a.u.

Set 4
Target: CCNA2, cyclin fold, Cln2 fusion (human)
Method: yeast growth competition, sequencing
Sample: yeast
Notes: strong parent motif
Reference: not given
Reading: higher = stronger binding
Endpoint: normalised enrichment score
Parent: SCAPER docking peptide (human); SNARRSLNFGGST; partner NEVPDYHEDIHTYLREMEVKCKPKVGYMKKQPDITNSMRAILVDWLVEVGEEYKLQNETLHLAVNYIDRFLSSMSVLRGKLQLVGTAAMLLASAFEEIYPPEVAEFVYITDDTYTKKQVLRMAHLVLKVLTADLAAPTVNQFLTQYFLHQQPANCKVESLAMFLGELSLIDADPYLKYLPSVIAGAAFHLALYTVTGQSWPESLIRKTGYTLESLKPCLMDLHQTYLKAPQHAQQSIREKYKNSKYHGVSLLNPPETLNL
N8G: 3.17
G10I: 4.69
S12G: 6.25
F9T: 0.672
N8A: 4.52
G10A: 5.64
R5I: 2.76
A3D: -0.532
G10K: 5.45
S1N: 5.65
A3E: 0.893
S1A: 6.26
N8P: 3.37
N8Q: 5.9
R5Y: 0.56
G11N: 5.91
S1M: 5.99
S1D: 4.68
S6P: 3.2
A3C: 5.97
S12Q: 5.97
N2D: 4.75
S12T: 6.25
G10D: 5.78
G10N: 5.76

Set 5
Target: Interferon regulatory factor 7, full length, phosphomimetic (IRF7, Homo sapiens, UniProt Q92985, residues 1-503, S101K/S471D/S472D/S475D/S476D/S477D/S483D/S484D/S487D)
UniProt Q92985, sequence (whole entry, unmodified, looked up): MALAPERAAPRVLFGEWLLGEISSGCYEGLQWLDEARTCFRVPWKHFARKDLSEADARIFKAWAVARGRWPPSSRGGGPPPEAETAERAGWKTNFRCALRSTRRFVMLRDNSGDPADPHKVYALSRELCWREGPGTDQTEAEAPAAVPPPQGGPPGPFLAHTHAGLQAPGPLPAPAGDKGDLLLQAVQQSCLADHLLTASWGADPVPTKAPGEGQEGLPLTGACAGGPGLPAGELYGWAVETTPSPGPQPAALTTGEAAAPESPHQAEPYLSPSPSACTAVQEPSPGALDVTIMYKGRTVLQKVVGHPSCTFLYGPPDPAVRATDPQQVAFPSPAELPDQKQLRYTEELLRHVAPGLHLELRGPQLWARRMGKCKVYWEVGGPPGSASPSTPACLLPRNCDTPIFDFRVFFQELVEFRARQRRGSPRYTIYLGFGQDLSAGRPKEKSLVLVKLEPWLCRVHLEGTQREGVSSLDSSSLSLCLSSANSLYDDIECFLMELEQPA
Method: protein-binding microarray
Molecule type: double-stranded DNA, one strand shown
Sample: in vitro
Concentration: 250 nM
Notes: 60-bp whole probe
Added: salmon DNA 0.4 mg/ml
Reference: random background probes
Reading: higher = stronger binding
Endpoint: log fluorescence
All sequences stand within: GCCTAGCAC … GTCTTGATTCGCTTGACGCTGCTG
GTAGGTATCCTTCTCCTTTAGTGCTAG: -0.0319 z-score
GACGGTATCGGGTATCTGGACGTGCTA: 0.109 z-score
TCAGGACTGCTTTTCCTTTAGTGCTAG: 0.753 z-score
CATTTTTTTTTTCTACTTCTGTGCTAG: 1.52 z-score
GACGAGATCAGACTGGAGACGTGCTAG: -0.316 z-score
TTAGGACTGCTTCTCCTTAAGTGCTAG: 0.822 z-score
TTAGAATTGGGGTATCGATTAGTGCTA: 0.232 z-score
GACGAACAGAGACTGGAGACGTGCTAG: 0.281 z-score
TTGGATATCGGGTATCGATTAGTGCTA: 0.426 z-score
TCATCATTTTCTCTGTTACTGTGCTAG: 1.26 z-score
TCATTTGTTTCACTTCCTACTGTGCTA: 3.07 z-score
TTAGGACTCGGTCTCGGTTAGTGCTAG: 2.37 z-score
TTAGCACTGGGGTTTCGATTAGTGCTA: 4.57 z-score
TCAGGTATAAACTTGGGACTGTGCTAG: -0.422 z-score
TTAGGTACCGGTCTCGGTTAGTGCTAG: 1.87 z-score
GACGGTTTACTTATCCTGACGTGCTAG: 0.23 z-score
GACGGTATCATTCTCCTGACGTGCTAG: 0.173 z-score
GACGGACTGGACACTGGGGATGTGCTA: -0.634 z-score
TGGTATTTTTTTCTAATTGAGTGCTAG: 1.1 z-score
TTAGATATCCGGTTTCGATTAGTGCTA: 8.47 z-score
TTAGATATCAGTCTCCATTAGTGCTAG: 0.455 z-score
GACGATATCAGACTGGAGAGGTGCTAG: -0.283 z-score

Set 6
Target: Sal-like protein 4, full length isoform B (SALL4, Homo sapiens, UniProt Q9UJQ4-2, residues 1-616)
Method: universal PBM
Molecule type: double-stranded DNA, one strand shown
Sample: in vitro
Concentration: not given
Notes: 8-mer, flanks averaged, mean of replicates
Reading: higher = stronger binding
Endpoint: E-score
CCGACTTA: 0.0882
GCTTCCTA: 0.187
ATGTTACA: 0.237
GAAGAGTA: 0.0895
TGCGTACA: 0.0404
ATACAGCC: 0.0257
GAAGGTCA: -0.0284
AGTACAAT: 0.241
GCTCGAAC: -0.125
AAAAAGCG: 0.174
AGCATTTC: 0.195
AACCATTC: 0.176
CAATAGGA: 0.145
ATCGAGAT: 0.0662
ACACTGCG: -0.191
GCCACTTA: 0.0402
AATGACAG: 0.168
CGGACGGC: -0.287
TCATCTAA: 0.0826
CGGCACCG: -0.303
ACCGATTG: 0.0941
AACTCGCG: -0.219
TCTGTACA: 0.217
GGGCTACA: -0.0898
CGTAATCA: 0.234

Some of these lines once more (set 4):
G10K: 5.45
S1N: 5.65
A3E: 0.893
S1A: 6.26
N8P: 3.37
N8Q: 5.9
R5Y: 0.56
